Results of several laboratories.
A part holds a random share of what one study measured. Values joined by “and” are separate records of one study, mostly repeats; a detail may differ.
Sequence of UniProt Q9Y2I7 (whole entry, looked up): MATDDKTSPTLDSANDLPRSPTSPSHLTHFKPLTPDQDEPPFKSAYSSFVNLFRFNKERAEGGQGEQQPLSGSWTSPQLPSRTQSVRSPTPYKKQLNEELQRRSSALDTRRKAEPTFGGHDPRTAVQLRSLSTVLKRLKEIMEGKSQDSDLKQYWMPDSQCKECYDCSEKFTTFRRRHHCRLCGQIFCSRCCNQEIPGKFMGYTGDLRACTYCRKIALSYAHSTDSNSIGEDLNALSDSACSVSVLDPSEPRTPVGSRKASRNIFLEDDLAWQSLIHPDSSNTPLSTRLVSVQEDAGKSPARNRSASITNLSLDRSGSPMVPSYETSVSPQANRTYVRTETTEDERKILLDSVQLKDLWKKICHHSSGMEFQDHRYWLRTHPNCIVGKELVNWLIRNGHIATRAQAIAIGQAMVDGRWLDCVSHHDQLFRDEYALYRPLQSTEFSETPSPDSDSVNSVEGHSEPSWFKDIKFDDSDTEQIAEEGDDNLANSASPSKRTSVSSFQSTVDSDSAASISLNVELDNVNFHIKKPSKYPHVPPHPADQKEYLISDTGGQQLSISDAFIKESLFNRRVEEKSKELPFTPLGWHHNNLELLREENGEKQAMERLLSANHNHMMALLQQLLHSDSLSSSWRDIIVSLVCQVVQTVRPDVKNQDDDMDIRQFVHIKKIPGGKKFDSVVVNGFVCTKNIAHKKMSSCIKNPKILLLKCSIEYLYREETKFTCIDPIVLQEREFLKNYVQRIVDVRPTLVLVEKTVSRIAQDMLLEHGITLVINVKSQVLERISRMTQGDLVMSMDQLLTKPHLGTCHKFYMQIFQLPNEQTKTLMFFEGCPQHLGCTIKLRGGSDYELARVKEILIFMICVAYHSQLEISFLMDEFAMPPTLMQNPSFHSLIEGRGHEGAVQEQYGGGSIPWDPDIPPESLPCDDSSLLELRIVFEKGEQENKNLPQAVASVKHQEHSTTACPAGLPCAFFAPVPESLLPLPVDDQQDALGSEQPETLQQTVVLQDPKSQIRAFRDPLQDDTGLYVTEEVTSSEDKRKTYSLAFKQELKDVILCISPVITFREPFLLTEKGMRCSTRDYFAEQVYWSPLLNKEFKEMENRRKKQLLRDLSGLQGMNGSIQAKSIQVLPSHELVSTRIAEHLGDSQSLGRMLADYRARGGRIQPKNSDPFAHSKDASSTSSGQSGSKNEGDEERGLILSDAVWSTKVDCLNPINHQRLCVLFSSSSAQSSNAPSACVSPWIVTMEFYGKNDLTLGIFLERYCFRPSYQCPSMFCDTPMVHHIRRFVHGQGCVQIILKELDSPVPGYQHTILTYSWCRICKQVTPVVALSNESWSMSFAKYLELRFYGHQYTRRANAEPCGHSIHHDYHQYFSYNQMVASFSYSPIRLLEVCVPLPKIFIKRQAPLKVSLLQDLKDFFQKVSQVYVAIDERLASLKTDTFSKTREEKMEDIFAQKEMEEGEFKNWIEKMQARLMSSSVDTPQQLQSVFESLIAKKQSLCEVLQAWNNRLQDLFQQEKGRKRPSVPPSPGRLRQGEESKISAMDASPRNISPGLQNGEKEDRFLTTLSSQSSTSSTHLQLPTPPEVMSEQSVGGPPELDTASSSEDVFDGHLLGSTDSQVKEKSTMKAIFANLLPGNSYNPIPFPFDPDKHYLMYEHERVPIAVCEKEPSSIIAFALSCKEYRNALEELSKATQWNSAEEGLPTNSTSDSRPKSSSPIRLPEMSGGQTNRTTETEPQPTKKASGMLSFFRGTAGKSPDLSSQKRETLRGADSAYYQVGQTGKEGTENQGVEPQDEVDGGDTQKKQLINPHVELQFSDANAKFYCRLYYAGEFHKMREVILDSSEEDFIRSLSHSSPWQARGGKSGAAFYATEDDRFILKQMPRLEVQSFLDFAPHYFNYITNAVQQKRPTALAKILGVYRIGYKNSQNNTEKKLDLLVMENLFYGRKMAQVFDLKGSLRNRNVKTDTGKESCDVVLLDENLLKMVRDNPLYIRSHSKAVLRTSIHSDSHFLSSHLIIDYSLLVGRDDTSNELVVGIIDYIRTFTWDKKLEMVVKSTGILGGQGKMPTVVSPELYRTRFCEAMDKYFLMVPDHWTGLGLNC

Study 1 — cell line: NCI-H292; method: CellTiter-Glo; time: 72 h
SMILES: CCOC(=O)/C=C/CNCCCCN1c2cc(Cl)ccc2CCc2cnn(C)c21.O=C(O)/C=C\C(=O)O
| conditions | viability |
| --- | --- |
| 50 µM | -0.333% and -0.579% and -0.507% |
| 5 µM | 18.2% and 18.9% and 19.1% |
| 0.05 µM | 103% and 105% |
| 0.005 µM | 105% and 101% |
| 0.5 µM | 97.8% and 99% and 96.8% |

Study 2
Structure (SMILES): Cc1ncsc1-c1ccc(C(CO)NC(=O)C2CC(O)CN2C(=O)C(C(C)C)n2cc(-c3ccc(COc4c(-c5c(C)c(F)cc6[nH]ncc56)c(C5CC5)cc5c(N6CC7CC6CN7)nc(OC6CCOCC6)nc45)cc3)nn2)cc1 (stereo not shown)
| test system | conditions | tumour volume |
| --- | --- | --- |
| GP5d xenograft, mouse | 30 mg/kg twice weekly, day 0 | 163 mm3 and 215 mm3 and 166 mm3 and 157 mm3 and 189 mm3 |
| KP-4 xenograft, mouse | 30 mg/kg twice weekly, day 4 | 188 mm3 and 146 mm3 and 141 mm3 and 189 mm3 and 172 mm3 |
| mouse, PK-59 xenograft | 0.3 mg/kg, day 17 | 1380 mm3 and 1150 mm3 and 1410 mm3 and 1500 mm3 and 1610 mm3 |
| GP5d xenograft, mouse | 30 mg/kg twice weekly, day 7 | 153 mm3 and 230 mm3 and 102 mm3 and 146 mm3 |
| ASPC1 xenograft, mouse | 30 mg/kg twice weekly, day 14 | 162 mm3 and 96.7 mm3 and 144 mm3 and 112 mm3 |
| KP-4 xenograft, mouse | 30 mg/kg twice weekly, day 0 | 192 mm3 and 243 mm3 and 221 mm3 and 176 mm3 and 209 mm3 |
| mouse, lung LXFA sample B PDX | 30 mg/kg twice weekly, day 14 | 42 mm3 and 67.8 mm3 and 26.5 mm3 and 129 mm3 and 133 mm3 and 49.6 mm3 and 52.7 mm3 and 98.1 mm3 |
| mouse, PK-59 xenograft | 3 mg/kg, day 14 | 623 mm3 and 577 mm3 and 425 mm3 and 482 mm3 and 627 mm3 |

Other studies, line by line
| SMILES | tested on | assay | test system | conditions | how to read | quantity | value |
| --- | --- | --- | --- | --- | --- | --- | --- |
| Cn1cc(-c2cccc(CN3CCC4(CC3)COc3c4ccc4c3CN([C@H]3CCC(=O)NC3=O)C4=O)c2)cn1 |  |  | cynomolgus monkey | intravenous, 1 mg/kg |  | Vz | 11400 mL/kg and 15600 mL/kg and 14300 mL/kg |
| Ic1ccc(Nc2nc(NCCc3c[nH]c4ccccc34)nc(N3CCOCC3)n2)cc1 | PIKFYVE (Homo sapiens, UniProt Q9Y2I7) | KINOMEscan |  | 10000 nM, unit not given | reference: DMSO | remaining binding | 0.035 and 0.0318 and 0.0297 and 0.0281 |
| CC(C)NC(=O)N1CCC(NC2=Nc3cc(F)ccc3N(CC(F)F)c3ccc(Cl)cc32)C1 (stereo in doubt) | sample B colorectal tumour organoid |  |  | 0.1 µM | reference: DMSO | viability | 131% |

Excerpt of the above (study 2):
| test system | conditions | tumour volume |
| --- | --- | --- |
| GP5d xenograft, mouse | 30 mg/kg twice weekly, day 7 | 153 mm3 and 230 mm3 and 102 mm3 and 146 mm3 |
